Experimental data collected from several papers.
Compare with care: the assays were run in different laboratories. ± marks the error that the study gave.

SMILES | assay | system | setting | how to read | quantity | value
O=C(N[C@@H](Cc1coc2ccccc12)B(O)O)[C@@H]1C[C@H]2CC[C@@H]1O2 |  | mouse, U266B1 xenograft, plasma | oral, 0.3 to 30 mg/kg single |  | plasma exposure | increased
Cc1cc(C)c(-c2[nH]nc(C)c2C)cc1C(=O)N1CC(c2ccc(C#N)cc2)C1 | mass spectrometry | mouse, A549 xenograft, plasma | oral, 60 mg/kg, 6 h after last dose |  | plasma concentration | 9540 ng/mL
O=C(Nc1nccs1)C(c1cc(F)ccc1O)N1Cc2ccccc2C1=O (stereo not drawn) |  | mouse FVB/NRj, female, plasma | oral, 20 mg/kg |  | plasma half-life | 1.36 ± 0.61 h
C=CC(=O)Nc1cccc(-c2cnc3[nH]cc(C(=O)NC(C)(C)C)c3n2)c1 |  | mouse NOD/SCID female, plasma | 50 mg/kg | relative to: ip over oral | plasma exposure ratio | 10 fold
Cn1cnnc1Sc1c2c(c(C#N)c3nc4ccccc4n13)CCCC2 |  | C57BL/6 mouse, plasma | intravenous, 0.3 µg/g, 15 min |  | plasma concentration | 6.3 ng/mL
CCN(C(=O)c1cc(F)ccc1Oc1nncnc1N1CCC2(C1)CN([C@H](CCCN(C)CCOC)C(C)C)C2)C(C)C |  | mouse | oral, oxalate salt |  | plasma half-life | ~9 h
Nc1c(S(=O)(=O)O)cc(Nc2cccc(S(N)(=O)=O)c2)c2c1C(=O)c1ccccc1C2=O |  | C57BL/6J mouse, male | intravenous, 5.0 mg/kg |  | plasma half-life | ~1 h
CCC1CC2C(C)=CC3C(=O)CCCC3C=CC(C)=CC2C(=O)O1 (stereo not drawn) |  | ICR mouse (male), plasma | oral, 30 mg/kg, 5 min |  | plasma concentration | 19 ± 10.7 ng/mL
CONC(=O)[C@H]1[C@@H](O)[C@@]2(O)c3c(cc(OC)nc3OC)O[C@@]2(c2ccc(C#N)cc2)[C@@H]1c1ccccc1 |  | mouse, plasma | oral, 5 mg/kg |  | plasma half-life | ~10 h

Repeated from above:
SMILES | assay | system | setting | how to read | quantity | value
O=C(Nc1nccs1)C(c1cc(F)ccc1O)N1Cc2ccccc2C1=O (stereo not drawn) |  | mouse FVB/NRj, female, plasma | oral, 20 mg/kg |  | plasma half-life | 1.36 ± 0.61 h
